Assay results pooled from the literature.
Parts stem from different laboratories: compare values within a part only.

Series 1
Target: RNA binding protein fox-1 homolog 2, RRM domain, GST-SBP tag (RBFOX2, Homo sapiens, UniProt O43251-10, residues 100-194)
Technique: RNA Bind-n-Seq
Form: RNA
Matrix: in vitro
Concentration: 365 nM
Notes: natural RNA segment, single round, ends assumed
Relative to: no-protein control
Reading: higher = stronger binding
All sequences stand within: GGGAGUUCUACAGUCCGACGAUC … UGGAAUUCUCGGGUGCCAA
Construct (chain): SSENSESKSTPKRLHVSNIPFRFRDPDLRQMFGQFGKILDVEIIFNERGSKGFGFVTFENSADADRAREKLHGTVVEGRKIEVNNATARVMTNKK
Sequence | RBNS enrichment (R)
CAUCCUUUACGUGUUUAAAAAAAAGCAUAAAAACAUUUUAAAAACAUAGAAAAAUUCAGCAAACCAUUUUUAAAGUAGAAGAGGGUUUUAGGUAGAAAAACAUAUUCUUG | 0.726
AAACACUUGGAACAACAAAGACCAUAAGCAUCAUUUAGCAGUUGUAGCCAUUUUCUAGUUAACUCAUGUAAACAAGUAAGAGUAACAUAACAGUAUUACCCUUUCACUGU | 0.867
AGUUUUUUGCUGUCUUUAAUUUACUAGAAUUGCCUAAUUUUUAGUUGAUUUCUCUACAGAGCUUAGCUUGUGUAGUUAUUUCUCUUUUACUGUUGCUUUGGUGUGUCUUG | 1.46
GUUAACUCUCACUAGGAAUAGCUUUGGCUUAAGAGUCCAGCAGGGGCAACUUCCUGAGAUGAAUGAAGUACAGGAAAAUGAAAGAUUAGAGGGAUGUGUGACGGAAUACA | 3.43
UGCUUCUGCGCCUUCUGCGUUUGGACAUAGGACUCUGCAGGGCCGCCCUCUCUAACUGGCCUGGCUCUGGAAGGGCUGGUGAGGACUCUGCCUCCUUGCCUGCCUACAAG | 0.575
AAAGUCCUGUCAGAUUGUGAAGAAAUGUUCCAGGAUACACUUGGAUUAGUUAUGCAGUAUUUCUUAUCAAUGUCUAGCCCUUGUGUAUUGUUCUGAAAACUAAAGUUUAA | 0.617
UUGACUUUUUAAUUUUUCUUUUGUUAUUUGUAUUUGCUAGUCUCUGAUUUCCUCAAAACGAAGUGGAAUUUACUACUGUUGUCAGUAUCGGUGUUUUGAAUUGGUGCCUG | 4.47
CUGGCCCCCCCUUAACACUGGAGCCCCACUCCCUUCUCCCAUCCGGCCCGAGAUUAGGGAGGAUUGACUGUGUCAGGGAUGGCGGGUGGCCUCUCUCGCUGCCAGGGCCC | 0.477
UGAUUAUGGUCAGAGACUUUCAACCCACCCCUUCCUGCCUACCCCUGGCUUUUCCUCACAAAGAAUGUCUAGACAAACAGCAGCUUAGUCUCCUGACACCUCUUGUGGGG | 0.206
AGUGUGUUCUGCCUGCCCGUUACAGUGGAGCGUUCCGUGUCCAUAAAACGUUUUCUAACUGGGUGUUACUGAGUGCCCAUUUAUGUUAGUAUUUGCAAAAUACCAUAAAC | 0.32
AAUCAACCAUUUUUCAAGGCACUCGAUCAGUGUUGCAGCAUAACAGAAAGUACAGCUACUGUGCCUUGUGUUACUUAUUUACACAGUUAGCAGGCCUGGAAAUGAAUGGA | 0.277
GGCUUUUACUUUGCACACCUUCAUUGCUUAAGAAGAAACUCAGGGUGCUGAGAAAGAUAUGUAUGCUGAAGGCUGUGAUUCCUCUUUUUAUUGUACCUAUGCCUGGGUGC | 0.839

Series 2
Target: Interferon regulatory factor 5, full length, phosphomimetic (IRF5, Homo sapiens, UniProt Q13568-2, residues 1-514, K96S/S451D/S453D/S456D/S462D)
Technique: protein-binding microarray
Form: double-stranded DNA, one strand shown
Matrix: in vitro
Concentration: 250 nM
Notes: 60-bp whole probe
Added: salmon DNA 0.4 mg/ml
Relative to: random background probes
Reading: higher = stronger binding
All sequences stand within: GCCTAGCAC … GTCTTGATTCGCTTGACGCTGCTG
Sequence | log fluorescence [z-score]
GACGGTTTCGGGTTTCGGGACGTGCTA | 7.65
TTAAGACTGCTACTGCTTTAGTGCTAG | 0.154
GACGGTCTAGGTCTCGGGACGTGCTAG | -0.405
TTAGGTCTACTTCTCCTTTAGTGCTAG | -0.0769
TTAGGTCTCCTACCGCTTTAGTGCTAG | -0.175
TTAGACTTCGGGACTGGATTAGTGCTA | -0.133
GACGCACTGGGGTATCGGGACGTGCTA | 0.0733
GCCAAAAGTGTAAATGTAAGGTGCTAG | 0.116
TTAGGACTGCTTTTCCGTTAGTGCTAG | 0.135
GACGGGTTCCTTTCCCTGACGTGCTAG | 0.235
GACGGTATCGGTTATCGGGACGTGCTA | 7.03
TCATTATTTTTTTTATTACTGTGCTAG | 1.25
TTAGATATAAGTCTCGATTAGTGCTAG | 1.06
GACGGTCTCCTTCTCCAGACGTGCTAG | -0.375
GACGATTTCAGACTGGAGTCGTGCTAG | 0.221
GGTACAAACTTGTAATTATAGTGCTAG | 0.168
TCAATTTTCTGAATGCTACTGTGCTAG | 1.04
GACGGTATCAACACTGGGGACGTGCTA | -0.0211
TTAGGTATCGGCTTTCGGTTAGTGCTA | 8.35
ATAGGACTGCTTCTCCTTTAGTGCTAG | -0.29
TTAGGCTTCCTACTGCTTTAGTGCTAG | -0.303
CTTACTTCCCAATTGTCTTTGTGCTAG | 0.569
GACTATCTCAGTTTCGAGACGTGCTAG | 5.11
AGGAATTTCCCACTTTCAGTGTGCTAG | 3.64

Series 3
Target: Fragile X messenger ribonucleoprotein 1, C-terminal low-complexity region (Fmr1, Mus musculus, UniProt P35922)
Technique: RNA Bind-n-Seq
Form: RNA
Matrix: in vitro
Concentration: 200 nM
Notes: whole 134-nt RNA, ends assumed
Added: 150 mM LiCl
Relative to: input library
Reading: higher = stronger binding
Each molecule: 7-deaza-guanosine replaces G
All sequences stand within: GGGAGUUCUACAGUCCGACGAUC … UGGAAUUCUCGGGUGUCAAGG
Sequence | log2 enrichment
UUAGGGAUGUGGCCAUAGAAUUCUCUCAGGAGGAGUGGAAAUGCCUGGACCCUGCUCAGAGGAUCUUAUACAGGGACGUGAUGUUGGAGA | 0.146
AGUCCUGUGCUACACAUCGUAUGUACCGAAUCGGGCCCCGGGCCCCGGGGCCCCGGGGAAAGUAUUAUGUUACGCCGUUCGGAUCUGCAC | -2.61
AAGUCCUGUGCUACACAUCGUAUGUACCGAAUCGGGGCCCGGCCCGGGGCCCGGGGAAAGUAUUAUGUUACGCCGUUCGGAUCUGCACUU | -2.22
CCUCAAGUCCUGUGCUACACAUCGUAUGUACCGAAUCGGGUGGGUGGUGGGGAAAGUAUUAUGUUACGCCGUUCGGAUCUGCACUUCCAG | -0.293
GCACGAAGUAAAAACAAAUGGAAAUGCUUCGGAUAGUGGCAGGGGUGGGGGUUGCUAAGGAAAGGGUGGGAUGGGAGUGGGUAAAGAGUU | 1.23
CUCAAGUCCUGUGCUACACAUCGUAUGUACCGAAUCGGUUUUUGGUUUGGAGGAAAGUAUUAUGUUACGCCGUUCGGAUCUGCACUUCCA | -0.554
GUCCUGUGCUACACAUCGUAUGUACCGAAUCGGGGUUUGGGGUUUGGGGAAAAAGGGGAAAGUAUUAUGUUACGCCGUUCGGAUCUGCAC | -1.14
UGGGAGGUGGAUUUUGUUUAUUUUUUUAGCUCAUUUCCAGGGGGGGGAAUUUUUUUUUAAUAUGUGUCAUGAAUAAAGUUGUUUUUGAAA | 0.874
GCAGGAAGUAAAAACAAAUGGAAAUGCUUCGGAUAAAGGCAGGGGUGGGGGUUGCUAAGGAAAGGGUGGGAUGGGAGUGGGUAAAGAGUU | 1.41
CAAGUCCUGUGCUACACAUCGUAUGUACCGAAUCGGAAAAAAAGGUUUGGAAAGGAAAGUAUUAUGUUACGCCGUUCGGAUCUGCACUUC | -2.08
UGGGAGGUGGAUUUUGUUUAUUUUUUUAGCUCAUUUCCAGGGGUGGGAAUUUUUUUUUAAUAUGUGUCAUGAAUAAACUUGUUUUUGAAA | 0.0494

Series 4
Target: PABPC1L2, full length, GST fusion (mouse, UniProt A0ABA7IW68)
Technique: RNAcompete
Form: RNA
Matrix: in vitro
Concentration: 20 nM
Notes: 7-mer, probes averaged, single round
Relative to: mean of 7-mers
Reading: higher = stronger binding
Target sequence (chain): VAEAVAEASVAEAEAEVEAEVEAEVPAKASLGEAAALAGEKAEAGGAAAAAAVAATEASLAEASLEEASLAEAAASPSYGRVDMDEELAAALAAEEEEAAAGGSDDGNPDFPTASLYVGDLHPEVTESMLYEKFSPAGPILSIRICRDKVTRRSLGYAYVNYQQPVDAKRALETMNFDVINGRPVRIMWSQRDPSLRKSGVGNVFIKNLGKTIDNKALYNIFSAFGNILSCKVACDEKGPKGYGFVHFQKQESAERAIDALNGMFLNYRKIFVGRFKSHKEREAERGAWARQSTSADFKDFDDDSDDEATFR
Sequence | 7-mer Z-score
AAGUCUA | -0.108
CAAUAUU | -0.106
UCGGGUA | 0.0189
UUUGACC | -0.271
UGAUCUA | -0.159
UAUAUUC | -0.193
UAGCCUC | -0.262
GUCUAAA | 0.488
CAGUACC | -0.108
GCCUUUG | -0.316
AAGUCCC | 0.0116
GCGAAUC | 0.00436
UUGAGCA | -0.155
GGACGAG | 0.0478
CACGCUG | -0.0899
UUGUCCA | -0.264
GAACUAU | -0.141
GGCCUGG | -0.197
GCUUGCA | -0.155

For quick reference, copied from above (series 2):
Sequence | log fluorescence [z-score]
GCCAAAAGTGTAAATGTAAGGTGCTAG | 0.116
GACGGGTTCCTTTCCCTGACGTGCTAG | 0.235
GACGGTTTCGGGTTTCGGGACGTGCTA | 7.65
GACGGTCTCCTTCTCCAGACGTGCTAG | -0.375
CTTACTTCCCAATTGTCTTTGTGCTAG | 0.569
GACGATTTCAGACTGGAGTCGTGCTAG | 0.221
ATAGGACTGCTTCTCCTTTAGTGCTAG | -0.29
TCATTATTTTTTTTATTACTGTGCTAG | 1.25
